Measurements gathered from unrelated publications.
Every numbered part comes from another study and shows a few of its results, in no order.

Sample 1
Target: Interferon regulatory factor 5, full length, phosphomimetic (IRF5, Homo sapiens, UniProt Q13568-2, residues 1-514, S451D/S453D/S456D/S462D)
Technique: protein-binding microarray
Molecule type: double-stranded DNA, one strand shown
Sample: in vitro
Tested at: 940 nM top
Notes: 60-bp whole probe
With: salmon DNA 0.4 mg/ml
Baseline: random background probes
Reading: higher = stronger binding
Quantity: fitted relative affinity
All sequences stand within: GCCTAGCAC … GTCTTGATTCGCTTGACGCTGCTG
GACGGTTTCGGGTGTCGGGACGTGCTA: 8.78 z-score
TACGGACTGGGTTTCGGGACGTGCTAG: 2.38 z-score
GAAGGACTGGGTTTCGGGACGTGCTAG: 1.88 z-score
TTAGGTATCGACACTGGCTTAGTGCTA: 4.97 z-score
AAGGCTTTGCTTCCTGCAGAGTGCTAG: -0.472 z-score
TTGGATTTCAGTATCGATTAGTGCTAG: 5.77 z-score
TTAGGTATCGGGCTTCGGTTAGTGCTA: 4.09 z-score
TCAGTTTCCAAATTGTCACTGTGCTAG: 0.806 z-score
TGATGTCTGGGTCTTGGTTCGTGCTAG: -0.189 z-score
TCCAATTGTCCTTTCACTTTGTGCTAG: 1.24 z-score
TTAGAACTGAGTTTCGATGAGTGCTAG: 6.24 z-score
TCATTTCCCACTTTCAGACTGTGCTAG: 1.75 z-score
TTAGGACTGGGGACCGGGTTAGTGCTA: -0.176 z-score
GTCGGTTTCGGTCTCGGGACGTGCTAG: 16.3 z-score
TTAAGTCTCCTTCTCCTTTAGTGCTAG: 0.965 z-score
TTAGATCTCAGTCTCGATTCGTGCTAG: 2.75 z-score
TTAGGTATCCTACTGGTTTAGTGCTAG: 0.438 z-score

Sample 2
Target: Histone acetyltransferase KAT6A, winged helix 1, GST fusion (KAT6A, Homo sapiens, UniProt Q92794, residues 1-85)
Technique: protein binding microarray
Molecule type: double-stranded DNA, one strand shown
Sample: in vitro
Tested at: not given
Notes: 8-mer, flanks averaged, mean of 2 arrays, mostly near background
Baseline: not given
Reading: higher = stronger binding
Quantity: E-score
Construct (chain): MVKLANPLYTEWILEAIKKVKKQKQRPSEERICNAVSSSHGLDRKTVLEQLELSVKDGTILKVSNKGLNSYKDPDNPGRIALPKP
GTCAGTGA: -0.105
CAGGTTCC: -0.0412
AATTTAAA: -0.297
CTCGCCCA: -0.0883
ATGTTACA: -0.0247
GCATCGGA: 0.148
CGAGGCAG: -0.0155
CCACTGCA: -0.176
GCTCCGTA: 0.297
AGCGAGTA: 0.0601
CTGCAGCC: -0.144
AGCGGGCA: 0.256
AAGTGACT: -0.101
CGTCTGGC: 0.0675
CTGCCGTC: 0.324
CAGTGTAA: -0.0901
CATAAGCA: -0.0258
CTCAAAGC: 0.0888
CATGAGGC: 0.0524
TCCACCCA: -0.191
CATAACAA: -0.161
ATCCCCAA: -0.29

Sample 3
Target: Sal-like protein 4, full length isoform B (SALL4, Homo sapiens, UniProt Q9UJQ4-2, residues 1-616)
Technique: universal PBM
Molecule type: double-stranded DNA, one strand shown
Sample: in vitro
Tested at: not given
Notes: 8-mer, flanks averaged, mean of replicates
Reading: higher = stronger binding
Quantity: E-score
CAGTAGGA: -0.116
ACGGTCAG: -0.0925
GCAAGAGA: -0.0728
CGAAGACG: -0.198
AAATTCGG: 0.0359
GCCAGACC: -0.373
AACCGCTG: -0.242
AAACCAAC: 0.138
AACACCTA: 0.0643
AGTCGCAA: 0.0217
TCACGACA: 0.056
CCAAATGC: -0.133
GGCTAGCA: -0.0657
ATGTGACA: 0.158
ACCAGTGC: -0.249
AACATCCT: 0.0109
GGGTATTA: 0.15
GACGTTGC: -0.088
AGTCCCGA: -0.215
ATTCCACG: 0.0483
CCGCTTGC: -0.221
AAGCCAAT: 0.125
TACTGAGA: -0.168
AACAGTGC: 0.00505
CAAAAGCC: -0.0598

Sample 4
Target: Centromere-binding protein 1, full length, N-terminal tag (CBF1, Saccharomyces cerevisiae, UniProt P17106, residues 1-351)
UniProt P17106, sequence (whole entry, looked up): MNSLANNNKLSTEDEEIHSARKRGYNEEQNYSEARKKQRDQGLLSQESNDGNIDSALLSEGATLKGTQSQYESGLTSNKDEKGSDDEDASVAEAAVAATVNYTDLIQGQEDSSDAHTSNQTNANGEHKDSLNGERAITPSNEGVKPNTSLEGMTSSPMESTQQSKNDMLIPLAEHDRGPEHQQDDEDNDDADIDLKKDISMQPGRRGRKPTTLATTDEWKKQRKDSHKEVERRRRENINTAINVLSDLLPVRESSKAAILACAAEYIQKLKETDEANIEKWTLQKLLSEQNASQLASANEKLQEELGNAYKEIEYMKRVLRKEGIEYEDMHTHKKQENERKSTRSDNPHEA
Technique: protein-binding microarray
Molecule type: double-stranded DNA, one strand shown
Sample: in vitro
Tested at: 0.8 µM
Notes: whole 60-bp probe, no competitor
Reading: higher = stronger binding
Quantity: fluorescence intensity
All sequences stand within: … GTCTTGATTCGCTTGACGCTGCTG
CTATCCTGGACTATAGACGTGAGTGGGGAGGAATTC: 530 a.u.
CTATAATACAAACCTCATGTGCATATATACATATTC: 534 a.u.
GAAGTAATTAATGGTATCGTGATCGTTACCTATTAG: 2110 a.u.
CTAGACGCGTTAGGCGTGGTGCTAAAGATGGCGTTC: 518 a.u.
CTATCCATTTTCTCGCATGTGGCGGTTTTCAGTTTC: 650 a.u.
CTATCCTTAAGAGCACACGTTTTAATTAGCAACTTC: 650 a.u.
GAACGTCGTATATTTCTCGTGCCGAGCTTGCGCTAG: 545 a.u.
GAATGCGGATACGGTCACGCATCCGCAGAACAGTAG: 1210 a.u.
GAAGATGAATAAAATCATGTGAGTATAATTTTCTAG: 1500 a.u.
GAAGATAATAATAATCACGTTTATATCACGTGATAG: 22800 a.u.
CTATTGTTCCGCGGAAAGCACGTGAGCGTAATCTTC: 11200 a.u.
CTAAACGAAAACAGAGACGTGATAGATGAACGTTTC: 583 a.u.
TGTACGAAGCTATATATGATCACTATAGTAGTTAGG: 526 a.u.
GAAGGTTATGGTTTTCGTGTGACCTTGTTTTGATAG: 591 a.u.
CTATTTCTAATAGGTGACATTACAAAATCCAGTTTC: 527 a.u.
GAACATTTCTGGGACATCAGCACTTGCGGTGCTTAG: 514 a.u.
CCTAACTACTATACACACGTCACATAGCTTCGTACA: 555 a.u.
GAACGCTGGCCGAAGGTGACAATGGCCTTATGATAG: 496 a.u.
CTATACTACGTAGGTCATCACTGTTATTGTTTTTTC: 532 a.u.
CTACGCTTCGGTAATCTGGTGAAATGATTGGATTTC: 526 a.u.
CCTAACTACTATAAGCACGAATCATAGCTTCGTACA: 522 a.u.
CTAGAAATTACTCATCAGGCAATAACCTATGCTTTC: 506 a.u.
GAAGTTACTGTGGTTCACGTGATTCAAGTGTGCTAG: 14500 a.u.
CTAATTCCGCTGGAAATCGTCACCAGCAGCTACTTC: 521 a.u.
GAAGAAAAGGGACACCACGAATACAGTAGTATCTAG: 519 a.u.

Sample 5
Target: RNA binding protein fox-1 homolog 2, RRM domain, GST-SBP tag (RBFOX2, Homo sapiens, UniProt O43251-10, residues 100-194)
Technique: RNA Bind-n-Seq
Molecule type: RNA
Sample: in vitro
Tested at: 365 nM
Notes: natural RNA segment, single round, ends assumed
Baseline: no-protein control
Reading: higher = stronger binding
Quantity: RBNS enrichment (R)
All sequences stand within: GGGAGUUCUACAGUCCGACGAUC … UGGAAUUCUCGGGUGCCAA
Construct (chain): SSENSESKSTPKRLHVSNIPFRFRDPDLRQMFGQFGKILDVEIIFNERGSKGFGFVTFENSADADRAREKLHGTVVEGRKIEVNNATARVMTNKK
UAGCAAAUCAUGGAAUGUUCUGAGUCCCUGAGGGUUUACUGUGAAGUGCUGAGGACAGUGUUGACAACUAACUCGUUUUCCUAGAUGGAAACGGAGACAUUGACCCCUCC: 0.355
CAAGUAACAUGAGCGGAUAAAAAGAGACUUGUUUGUGCUAGAAAUGAGGGUCUAUGCUAUGAGGGGGUCCAAGACUCUGGCGAAAUGUGCUUUUUCAUCAAUGGAGAAAU: 1.62
AAAGAAGAAACCACCCUGAUCCCCCAUUUCCUACAGUUGAGCAUGGACUCCCUAGUGCCCAUGCUGAGAUCUCAGCAUGUUCUAGAUGGGUCCUCUAGAGCACGGGUUUG: 0.409
GGCCCUGCCCAUGCCUGGGCCAGAGUGGCGCUGGGGCCUCGGCUUCCCUUUGGCUCCUGGAAGGCAGGAGGGUCCCCUGCCCUGCCCCAGUCCUGCCCCAGGGAGGCAGG: 0.421
CUCCACAAGGGACCCUUGAGAUCACUGACACAUCACCCCCAUUUCUCUGCUGGAAAAAACCAGAAUCCAGGAGGGGUUGUGACCUGCCCAAGACCAAGGGCAGUUUAGGG: 0.244
UCGUCUGGUAUAGAAAGCGCAUGUUUCUGUAUCGGUGUCUGAUGAUAAGUUUCCUUGGAGUUUUAUGCACAUGUUUGAUUGUUCUAGAUAAAUUGUCAUAAACAUUCUAG: 31.8
CACCAUGUGGCAGAGCUCCAGCCUCGAGUUGUCCCCCAGACUCAGGAGUCCCAGCCGGAUGGCCACCUCUGCAACCAUCAUCCUGUCUUCAGCUCAGCGGCAGCCCCGAA: 0.807
GCAGACUGUGACCCUCGUGUUUGAGGAAAGCUGGUGUUUUCUGUGUUGGAACGCCACGGUUGCCAGACCAUUCCUUCCAUCUAACUGCGUAUUACACAAGGGCAUCGAGU: 0.746
GUAAACAGGUCAGCACCCCCACUACUCUUUUUAAAAUCACUUUAGUGAUGGAGAUGUCUUGCAAAGAUGUAGAGAACAAGGCCUCUUUUCCCUAGAUGAGACCUGAGGAA: 9.97
UUAAAGUUUCAAAAAUCUGAAGAUUGUUUAUCUAGAUGUAAAUUUUUAUUAAAAAGUUGCACUUAUGAAAAAGCAAAAAAUUAGUCUGACAGAUGUUUGCUCCUGGUUUU: 0.512
AUAAAUUCUAAGGAGGUUUCUAAUUUUGUAAUUGUUAAAAAUAGAGUUAAUUUUGACUUUGUUAGAUGAGGGAGGAAAACUCAACUGUUUCUCUUUGUUAUCUAAAUGUU: 1.02
CUGUAGUCUUAACUCUAACCCUCUGGUGCUGCUCUCUGAGCAGCAGUAUUUACAAUAACCGAGCUAUCACGGCUAACUCUCGCAUGUCAGGAAACACAGACCUUAGCGAU: 4.64

A few entries again (sample 4):
CTATTGTTCCGCGGAAAGCACGTGAGCGTAATCTTC: 11200 a.u.
CTATCCTTAAGAGCACACGTTTTAATTAGCAACTTC: 650 a.u.
GAAGTAATTAATGGTATCGTGATCGTTACCTATTAG: 2110 a.u.
CTATCCATTTTCTCGCATGTGGCGGTTTTCAGTTTC: 650 a.u.
CCTAACTACTATACACACGTCACATAGCTTCGTACA: 555 a.u.
CTACGCTTCGGTAATCTGGTGAAATGATTGGATTTC: 526 a.u.
GAACATTTCTGGGACATCAGCACTTGCGGTGCTTAG: 514 a.u.
CTAGACGCGTTAGGCGTGGTGCTAAAGATGGCGTTC: 518 a.u.
